Results gathered from unrelated publications.
Numbered parts are unrelated; each lists some results of a single study.
Sequence of UniProt P25105 (whole entry, looked up): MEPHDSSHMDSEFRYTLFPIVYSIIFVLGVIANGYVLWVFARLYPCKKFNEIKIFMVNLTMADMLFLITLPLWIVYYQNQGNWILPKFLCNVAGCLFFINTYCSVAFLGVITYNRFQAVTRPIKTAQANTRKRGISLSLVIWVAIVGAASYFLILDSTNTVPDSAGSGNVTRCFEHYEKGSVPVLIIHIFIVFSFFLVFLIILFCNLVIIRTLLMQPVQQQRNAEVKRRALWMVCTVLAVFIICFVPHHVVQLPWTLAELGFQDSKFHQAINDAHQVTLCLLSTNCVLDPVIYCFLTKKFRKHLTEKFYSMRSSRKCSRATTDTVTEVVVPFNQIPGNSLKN
Sequence of UniProt P32247 (whole entry, looked up): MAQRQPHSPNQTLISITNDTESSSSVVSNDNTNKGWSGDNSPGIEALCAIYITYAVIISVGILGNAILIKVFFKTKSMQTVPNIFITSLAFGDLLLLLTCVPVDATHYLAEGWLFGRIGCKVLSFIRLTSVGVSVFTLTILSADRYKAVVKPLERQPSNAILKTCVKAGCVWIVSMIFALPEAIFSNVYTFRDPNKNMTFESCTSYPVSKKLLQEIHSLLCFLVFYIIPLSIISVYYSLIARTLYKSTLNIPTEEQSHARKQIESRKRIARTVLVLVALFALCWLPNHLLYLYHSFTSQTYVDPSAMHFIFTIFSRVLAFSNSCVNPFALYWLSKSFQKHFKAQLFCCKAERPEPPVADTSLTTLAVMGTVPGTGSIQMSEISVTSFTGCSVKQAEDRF
Sequence of UniProt O75385 (whole entry, looked up): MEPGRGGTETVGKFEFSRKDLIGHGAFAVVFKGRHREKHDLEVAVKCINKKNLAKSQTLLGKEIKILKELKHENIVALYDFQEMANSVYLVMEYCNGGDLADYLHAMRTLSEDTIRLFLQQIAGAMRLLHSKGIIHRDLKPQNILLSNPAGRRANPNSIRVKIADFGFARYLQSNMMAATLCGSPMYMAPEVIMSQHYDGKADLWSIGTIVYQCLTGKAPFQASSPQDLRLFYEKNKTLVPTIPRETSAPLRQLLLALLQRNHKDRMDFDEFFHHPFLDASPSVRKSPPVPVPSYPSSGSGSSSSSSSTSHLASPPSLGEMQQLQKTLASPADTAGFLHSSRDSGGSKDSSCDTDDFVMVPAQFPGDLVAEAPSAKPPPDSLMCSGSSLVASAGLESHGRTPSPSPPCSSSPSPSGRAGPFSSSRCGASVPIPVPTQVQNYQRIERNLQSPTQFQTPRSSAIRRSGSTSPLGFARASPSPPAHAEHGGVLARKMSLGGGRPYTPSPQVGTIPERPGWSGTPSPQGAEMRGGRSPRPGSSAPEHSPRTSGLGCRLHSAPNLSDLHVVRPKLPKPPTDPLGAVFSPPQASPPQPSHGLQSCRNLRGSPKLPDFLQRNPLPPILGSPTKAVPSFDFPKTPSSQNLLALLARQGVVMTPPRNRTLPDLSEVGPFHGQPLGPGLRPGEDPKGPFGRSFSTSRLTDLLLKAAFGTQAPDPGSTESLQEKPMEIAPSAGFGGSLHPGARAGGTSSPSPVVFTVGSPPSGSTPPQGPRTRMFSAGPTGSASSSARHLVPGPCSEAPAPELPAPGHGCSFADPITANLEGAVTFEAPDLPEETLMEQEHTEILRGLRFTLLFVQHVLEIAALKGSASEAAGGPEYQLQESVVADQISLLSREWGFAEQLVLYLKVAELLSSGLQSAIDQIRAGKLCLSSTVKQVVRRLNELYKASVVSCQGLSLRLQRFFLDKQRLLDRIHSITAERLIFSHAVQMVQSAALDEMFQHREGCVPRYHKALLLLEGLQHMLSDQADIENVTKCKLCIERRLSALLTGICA
Sequence of UniProt Q13177 (whole entry, looked up): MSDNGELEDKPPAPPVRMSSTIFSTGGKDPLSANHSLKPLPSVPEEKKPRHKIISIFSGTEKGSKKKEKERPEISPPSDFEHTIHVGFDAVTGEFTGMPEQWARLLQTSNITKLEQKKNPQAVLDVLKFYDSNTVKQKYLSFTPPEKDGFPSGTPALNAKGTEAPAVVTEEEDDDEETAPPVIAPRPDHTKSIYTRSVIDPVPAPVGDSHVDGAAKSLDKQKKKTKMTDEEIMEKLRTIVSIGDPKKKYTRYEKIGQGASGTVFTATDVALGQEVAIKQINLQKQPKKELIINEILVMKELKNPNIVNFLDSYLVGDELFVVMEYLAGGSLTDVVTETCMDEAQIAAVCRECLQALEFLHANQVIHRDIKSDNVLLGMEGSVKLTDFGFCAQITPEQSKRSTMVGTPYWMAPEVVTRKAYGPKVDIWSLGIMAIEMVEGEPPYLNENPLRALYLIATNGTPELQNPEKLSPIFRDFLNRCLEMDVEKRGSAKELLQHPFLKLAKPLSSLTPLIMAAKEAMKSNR
Sequence of UniProt P47898 (whole entry, looked up): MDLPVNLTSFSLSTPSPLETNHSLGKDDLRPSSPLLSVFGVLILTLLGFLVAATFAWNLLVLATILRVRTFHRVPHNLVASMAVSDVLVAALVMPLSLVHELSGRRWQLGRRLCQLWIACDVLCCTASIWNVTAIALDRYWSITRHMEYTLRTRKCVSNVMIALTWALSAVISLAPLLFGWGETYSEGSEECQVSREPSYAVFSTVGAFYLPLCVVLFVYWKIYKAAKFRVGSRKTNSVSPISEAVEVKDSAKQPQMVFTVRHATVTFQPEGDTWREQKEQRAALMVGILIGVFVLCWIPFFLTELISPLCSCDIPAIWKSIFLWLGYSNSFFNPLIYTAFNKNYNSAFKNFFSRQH
Sequence of UniProt P25024 (whole entry, looked up): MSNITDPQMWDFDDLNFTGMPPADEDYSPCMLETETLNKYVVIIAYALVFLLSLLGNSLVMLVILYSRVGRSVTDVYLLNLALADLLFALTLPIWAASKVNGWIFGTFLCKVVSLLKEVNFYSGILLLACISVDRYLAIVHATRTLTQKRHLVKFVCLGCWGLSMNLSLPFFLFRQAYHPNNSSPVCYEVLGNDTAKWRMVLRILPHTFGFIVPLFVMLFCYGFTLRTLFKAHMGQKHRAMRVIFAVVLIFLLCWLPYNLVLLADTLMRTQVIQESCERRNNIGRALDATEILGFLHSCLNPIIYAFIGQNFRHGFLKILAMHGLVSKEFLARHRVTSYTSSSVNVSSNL
Sequence of UniProt P33981 (whole entry, looked up): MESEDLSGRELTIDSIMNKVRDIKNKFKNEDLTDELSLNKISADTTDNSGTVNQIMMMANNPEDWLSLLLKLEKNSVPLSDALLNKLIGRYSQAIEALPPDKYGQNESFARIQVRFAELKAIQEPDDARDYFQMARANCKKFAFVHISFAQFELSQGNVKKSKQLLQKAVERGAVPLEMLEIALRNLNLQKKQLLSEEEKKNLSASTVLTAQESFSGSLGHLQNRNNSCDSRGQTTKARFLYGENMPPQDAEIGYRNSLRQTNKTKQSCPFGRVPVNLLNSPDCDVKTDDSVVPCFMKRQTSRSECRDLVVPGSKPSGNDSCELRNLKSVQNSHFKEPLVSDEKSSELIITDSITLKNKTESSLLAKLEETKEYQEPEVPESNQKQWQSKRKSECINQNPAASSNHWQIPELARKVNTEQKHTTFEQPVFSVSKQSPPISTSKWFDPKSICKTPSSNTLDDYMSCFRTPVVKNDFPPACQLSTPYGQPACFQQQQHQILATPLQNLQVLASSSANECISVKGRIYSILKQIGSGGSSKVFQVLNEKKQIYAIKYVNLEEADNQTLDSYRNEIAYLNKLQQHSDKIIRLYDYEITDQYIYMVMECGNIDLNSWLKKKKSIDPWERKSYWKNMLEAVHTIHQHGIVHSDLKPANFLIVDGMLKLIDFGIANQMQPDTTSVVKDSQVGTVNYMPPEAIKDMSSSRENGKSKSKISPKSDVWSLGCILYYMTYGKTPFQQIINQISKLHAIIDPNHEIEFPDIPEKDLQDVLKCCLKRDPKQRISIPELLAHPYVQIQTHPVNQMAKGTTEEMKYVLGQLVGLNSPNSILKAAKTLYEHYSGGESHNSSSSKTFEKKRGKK

Block 1
Structure (SMILES): CCN(c1nc(N)c(C(=O)N=C(N)N)nc1Cl)C(C)C
Effect on: β-arrestin recruitment
Mode: agonist
Method: PRESTO-Tango
Concentration: 10 µM
Relative to: untreated
Endpoint: fold over basal
GRPR (Homo sapiens, UniProt P30550): 0.95 fold
Probable G-protein coupled receptor 162 (GPR162, Homo sapiens, UniProt Q16538): 1.14
Adhesion G-protein coupled receptor F3 (ADGRF3, Homo sapiens, UniProt Q8IZF5): 1.46
NPBWR1 (Homo sapiens, UniProt P48145): 0.91
BRS3 (Homo sapiens, UniProt P32247): 3.36
HRH3 (Homo sapiens, UniProt Q9Y5N1): 0.58 fold
CXCR1 (Homo sapiens, UniProt P25024): 1.02
PTAFR (Homo sapiens, UniProt P25105): 1.19
GPR101 (Homo sapiens, UniProt Q96P66): 1.08
GRM2 (Homo sapiens, UniProt Q14416): 1.13 fold
HTR5A (Homo sapiens, UniProt P47898): 0.91

Block 2
Target: NT-3 growth factor receptor (NTRK3, Homo sapiens, UniProt Q16288)
Sequence of UniProt Q16288 (whole entry, looked up): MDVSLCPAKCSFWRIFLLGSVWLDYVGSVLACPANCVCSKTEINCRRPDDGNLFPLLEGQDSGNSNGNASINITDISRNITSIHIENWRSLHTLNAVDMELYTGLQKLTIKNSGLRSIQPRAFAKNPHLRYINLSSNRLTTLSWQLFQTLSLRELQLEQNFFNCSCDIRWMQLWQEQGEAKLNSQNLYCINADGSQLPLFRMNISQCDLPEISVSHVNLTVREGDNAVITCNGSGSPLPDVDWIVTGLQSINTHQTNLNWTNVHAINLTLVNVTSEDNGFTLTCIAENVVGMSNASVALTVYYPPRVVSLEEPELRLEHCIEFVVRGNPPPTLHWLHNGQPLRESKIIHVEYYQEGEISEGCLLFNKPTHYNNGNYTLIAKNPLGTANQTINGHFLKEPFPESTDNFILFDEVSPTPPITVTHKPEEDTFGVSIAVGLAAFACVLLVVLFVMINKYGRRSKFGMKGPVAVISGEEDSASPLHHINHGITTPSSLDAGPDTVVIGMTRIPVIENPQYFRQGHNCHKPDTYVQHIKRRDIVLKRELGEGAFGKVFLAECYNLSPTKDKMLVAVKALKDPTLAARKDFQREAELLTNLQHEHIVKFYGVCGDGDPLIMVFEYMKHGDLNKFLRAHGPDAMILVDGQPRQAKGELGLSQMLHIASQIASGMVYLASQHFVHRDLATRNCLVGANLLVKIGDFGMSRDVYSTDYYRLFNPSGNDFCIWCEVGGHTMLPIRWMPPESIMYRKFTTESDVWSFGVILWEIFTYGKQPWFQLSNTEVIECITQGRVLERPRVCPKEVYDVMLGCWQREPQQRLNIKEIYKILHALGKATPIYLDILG
Effect on: enzyme activity
Mode: inhibitor
Concentration: 0.5 µM
Relative to: control
Endpoint: remaining activity
c1ccc2c(-c3ccncc3)c[nH]c2c1: 100%
CCCNC(=O)Nc1ccc(Oc2ncnc3cc(OC)c(OC)cc23)cc1Cl: 89%
CCCCc1c(-c2ccc(OC)cc2)[nH]c2nccnc12: 84.4%
COc1ccc2c(c1)c(C1=C(c3c[nH]c4ccccc34)C(=O)NC1=O)cn2CCCN(C)C: 54.9%
O=C(O)/C=C/c1cc(Br)c(Br)c(Br)c1Br: 90.6%
CC(C)(C)c1nc2c3cc[nH]c(=O)c3c3cc(F)ccc3c2[nH]1: 6.81%
CC(C)N(CCC(=O)c1ccc2ccccc2c1)Cc1ccccc1: 103%
O=C1c2ccccc2-c2nc3nnnn3nc21: 87.2%
c1ccc(-c2n[nH]c3c2oc2ccccc23)cc1: 42.7%
O=C1Nc2ccc(Br)cc2/C1=C/c1cc2c([nH]1)CCCC2: 11.9%
O=Nc1c(-c2c(O)[nH]c3ccccc23)[nH]c2ccccc12: 2.17%
COc1cccc(-c2cc(=O)c3ccccc3o2)c1N: 99.3%
CCCCc1c(-c2ccc(O)cc2)[nH]c2nccnc12: 76.1%
O=C1NC(=O)/C(=C/c2ccc3c(c2)OC(F)(F)O3)S1: 98%
NC(=O)c1cccc(-c2cc(Nc3ccc(OC(F)(F)F)cc3)ncn2)c1: 92.7%
N#C/C(=C(/N)SC1C=CC=CC1)c1cccc(C(O)c2ccncc2)c1 (stereo not shown): 103%
O=c1cc(N2CCOCC2)oc2c(-c3ccccc3)cccc12: 95.9%
CCN(CC)CCCCN1c2ccccc2Oc2ccc(Cl)cc21: 103%
O=C1NC(=O)c2c1c1c3ccccc3[nH]c1c1[nH]c3cc(Br)ccc3c21: 28.8%
O=C(c1ccccc1)c1ccc(N2CCOCC2)cc1O: 93.7%
O=C1Nc2ccccc2/C1=C\c1c(Cl)[nH]c2ccccc12: 92.9%
FC(F)(F)c1ccc(/C=C/c2nc(COc3ccc(CCCCn4ccnn4)cc3)co2)cc1: 98.9%
NC(=O)c1ccc(-c2nc(-c3ccc4c(c3)OCCO4)c(-c3ccccn3)[nH]2)cc1: 95%
O=C(c1cc2cc(O)ccc2[nH]1)c1cc2cc(O)ccc2[nH]1: 13.4%

Block 3
Structure (SMILES): Cc1ccc(-c2cnc([C@@]3(O)CC[C@H](C(=O)O)C(C)(C)C3)s2)cc1Nc1cccc(C(F)(F)F)n1
Effect on: binding
Method: competition with immobilised ligand
Concentration: 1 µM
Endpoint: remaining binding
WNK4 (Homo sapiens, UniProt Q96J92): 31.8%
WNK3 (Homo sapiens, UniProt Q9BYP7): 0%
PLK1 (Homo sapiens, UniProt P53350): 20.3%

Block 4
Cell line: HaCaT
Concentration: 100 µM
Time: 36 h
Endpoint: viability
NC(=O)N[C@@H](CCC(=O)O)C(=O)O: 83.2%
CCOc1nc2cccc(C(=O)O)c2n1Cc1ccc(-c2ccccc2-c2nnn[nH]2)cc1: 95.7%
CCN1CCN(c2cc(-c3ccc(F)cc3)c3c(n2)CCCCCC3)CC1: 113%
Cc1cn([C@H]2C[C@H](N=[N+]=[N-])[C@@H](CO)O2)c(=O)[nH]c1=O: 61.1%
CC(C)(C)NCC(O)COc1cccc2c1CCC(=O)N2 (stereo not shown): 88.7%
C[C@@H]1O[C@@H]1P(=O)(O)O: 97.7%
Cc1oncc1C(=O)Nc1ccc(C(F)(F)F)cc1: 48.2%
CCCNC(C)C(=O)Nc1c(C)csc1C(=O)OC (stereo not shown): 97.4%

Block 5
Compound: CC(C)S(=O)(=O)c1ccc2nccc(Nc3ccc4sc(C5CCCC5)nc4c3)c2c1
Effect on: enzyme activity
Mode: inhibitor
Concentration: 1 µM
Endpoint: activity vs control
MAP2K1 (Homo sapiens, UniProt Q02750): 99%
TTK (Homo sapiens, UniProt P33981): 94%
PAK2 (Homo sapiens, UniProt Q13177): 92%
ABL1 (Homo sapiens, UniProt P00519): 85%
ULK1 (Homo sapiens, UniProt O75385): 100%
CSNK1G3 (Homo sapiens, UniProt Q9Y6M4): 127%
